Experimental data of several laboratories.
Compare with care: the assays were run in different laboratories. Numbers after ± are the reported error.
LGALS3: Galectin-3 (LGALS3, Homo sapiens, UniProt P17931)
Sequence of UniProt P17931 (whole entry, unmodified, looked up): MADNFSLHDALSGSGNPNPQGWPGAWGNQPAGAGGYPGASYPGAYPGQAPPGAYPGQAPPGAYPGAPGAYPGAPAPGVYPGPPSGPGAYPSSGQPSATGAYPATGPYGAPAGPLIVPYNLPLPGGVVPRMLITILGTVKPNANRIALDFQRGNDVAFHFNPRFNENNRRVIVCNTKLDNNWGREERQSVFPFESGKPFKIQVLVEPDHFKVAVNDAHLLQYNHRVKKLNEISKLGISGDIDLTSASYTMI
PPIA: Peptidyl-prolyl cis-trans isomerase A (PPIA, Homo sapiens, UniProt P62937)
Sequence of UniProt P62937 (whole entry, looked up): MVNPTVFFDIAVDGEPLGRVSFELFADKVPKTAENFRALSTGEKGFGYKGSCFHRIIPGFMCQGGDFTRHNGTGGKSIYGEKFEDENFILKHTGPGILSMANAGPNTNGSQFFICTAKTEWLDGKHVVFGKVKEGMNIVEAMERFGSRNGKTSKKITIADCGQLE
BCL2L1: Bcl-2-like protein 1 (BCL2L1, Homo sapiens, UniProt Q07817)
Sequence of UniProt Q07817 (whole entry, looked up): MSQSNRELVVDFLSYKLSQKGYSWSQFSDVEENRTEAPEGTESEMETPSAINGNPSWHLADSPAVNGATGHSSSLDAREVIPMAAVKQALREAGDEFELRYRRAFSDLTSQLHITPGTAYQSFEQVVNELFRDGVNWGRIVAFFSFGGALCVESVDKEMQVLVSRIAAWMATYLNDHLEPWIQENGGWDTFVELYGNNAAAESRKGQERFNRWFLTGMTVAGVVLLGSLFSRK
XIAP BIR1 domain: E3 ubiquitin-protein ligase XIAP, BIR1 domain (XIAP, Homo sapiens, UniProt P98170)
Sequence of UniProt P98170 (whole entry, looked up): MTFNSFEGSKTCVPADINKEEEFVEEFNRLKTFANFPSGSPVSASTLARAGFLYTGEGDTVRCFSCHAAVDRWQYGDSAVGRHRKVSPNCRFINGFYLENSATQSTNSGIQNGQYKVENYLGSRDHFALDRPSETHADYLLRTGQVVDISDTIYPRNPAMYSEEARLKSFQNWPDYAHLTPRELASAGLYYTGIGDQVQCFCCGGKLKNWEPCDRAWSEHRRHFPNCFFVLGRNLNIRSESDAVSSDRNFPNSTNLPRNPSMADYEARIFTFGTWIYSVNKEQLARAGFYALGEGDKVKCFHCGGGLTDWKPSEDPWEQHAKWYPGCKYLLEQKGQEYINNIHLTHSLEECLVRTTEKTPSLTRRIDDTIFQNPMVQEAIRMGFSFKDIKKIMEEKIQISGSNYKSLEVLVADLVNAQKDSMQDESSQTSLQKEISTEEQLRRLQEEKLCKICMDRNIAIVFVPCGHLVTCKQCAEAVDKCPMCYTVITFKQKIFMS
Sequence of UniProt P27694 (whole entry, unmodified, looked up): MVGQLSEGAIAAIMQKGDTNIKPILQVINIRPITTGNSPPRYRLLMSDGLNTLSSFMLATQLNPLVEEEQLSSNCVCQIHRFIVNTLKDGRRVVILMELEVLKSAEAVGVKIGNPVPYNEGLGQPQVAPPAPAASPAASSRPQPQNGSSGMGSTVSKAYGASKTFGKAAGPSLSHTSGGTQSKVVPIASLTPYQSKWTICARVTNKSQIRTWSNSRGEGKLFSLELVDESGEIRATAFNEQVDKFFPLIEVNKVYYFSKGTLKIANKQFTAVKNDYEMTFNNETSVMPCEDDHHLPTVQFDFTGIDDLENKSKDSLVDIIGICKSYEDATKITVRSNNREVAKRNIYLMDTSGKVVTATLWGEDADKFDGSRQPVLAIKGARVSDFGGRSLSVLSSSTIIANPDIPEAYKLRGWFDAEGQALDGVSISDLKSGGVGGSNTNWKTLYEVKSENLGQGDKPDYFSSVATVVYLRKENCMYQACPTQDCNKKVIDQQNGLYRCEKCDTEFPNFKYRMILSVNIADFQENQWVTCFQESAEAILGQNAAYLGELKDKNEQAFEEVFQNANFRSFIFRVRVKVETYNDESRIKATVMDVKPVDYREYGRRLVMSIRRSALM
Sequence of UniProt P02754 (whole entry, unmodified, looked up): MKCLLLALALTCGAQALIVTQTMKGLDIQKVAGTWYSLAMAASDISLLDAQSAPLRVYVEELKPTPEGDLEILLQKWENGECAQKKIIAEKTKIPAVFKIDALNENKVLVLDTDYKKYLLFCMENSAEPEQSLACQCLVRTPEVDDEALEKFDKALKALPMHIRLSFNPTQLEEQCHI
Sequence of UniProt Q92843 (whole entry, looked up): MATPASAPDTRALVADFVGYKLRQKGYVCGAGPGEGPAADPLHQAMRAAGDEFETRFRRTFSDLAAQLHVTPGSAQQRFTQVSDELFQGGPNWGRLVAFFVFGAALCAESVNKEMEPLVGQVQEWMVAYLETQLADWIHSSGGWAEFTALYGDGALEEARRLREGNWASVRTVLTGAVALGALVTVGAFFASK
Sequence of UniProt Q9SQR3 (whole entry, looked up): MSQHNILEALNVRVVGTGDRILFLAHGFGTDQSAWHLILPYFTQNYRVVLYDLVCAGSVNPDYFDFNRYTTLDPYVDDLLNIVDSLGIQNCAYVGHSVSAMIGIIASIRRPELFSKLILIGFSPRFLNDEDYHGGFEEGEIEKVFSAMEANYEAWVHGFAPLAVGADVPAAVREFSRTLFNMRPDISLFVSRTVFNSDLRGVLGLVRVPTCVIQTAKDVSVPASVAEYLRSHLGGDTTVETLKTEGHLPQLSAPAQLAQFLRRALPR
Sequence of UniProt Q13976 (whole entry, looked up): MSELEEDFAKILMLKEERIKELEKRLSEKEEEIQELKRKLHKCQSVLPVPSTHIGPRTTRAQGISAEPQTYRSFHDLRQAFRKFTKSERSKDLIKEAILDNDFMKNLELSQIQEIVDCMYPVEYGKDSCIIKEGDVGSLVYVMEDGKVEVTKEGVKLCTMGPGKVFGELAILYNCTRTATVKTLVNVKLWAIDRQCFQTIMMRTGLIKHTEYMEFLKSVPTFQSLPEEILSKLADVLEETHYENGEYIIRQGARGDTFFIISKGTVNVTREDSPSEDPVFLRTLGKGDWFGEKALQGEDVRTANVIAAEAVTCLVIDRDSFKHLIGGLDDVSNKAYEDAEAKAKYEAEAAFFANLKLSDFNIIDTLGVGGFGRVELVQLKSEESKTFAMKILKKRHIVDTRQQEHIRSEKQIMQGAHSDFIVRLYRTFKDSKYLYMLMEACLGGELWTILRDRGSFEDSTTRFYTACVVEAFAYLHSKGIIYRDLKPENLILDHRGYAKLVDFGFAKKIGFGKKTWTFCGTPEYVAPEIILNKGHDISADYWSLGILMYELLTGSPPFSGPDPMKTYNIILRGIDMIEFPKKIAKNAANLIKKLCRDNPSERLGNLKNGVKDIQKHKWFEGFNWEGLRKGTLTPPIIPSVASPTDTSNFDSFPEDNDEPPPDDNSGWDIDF
Sequence of UniProt Q9BQB4 (whole entry, looked up): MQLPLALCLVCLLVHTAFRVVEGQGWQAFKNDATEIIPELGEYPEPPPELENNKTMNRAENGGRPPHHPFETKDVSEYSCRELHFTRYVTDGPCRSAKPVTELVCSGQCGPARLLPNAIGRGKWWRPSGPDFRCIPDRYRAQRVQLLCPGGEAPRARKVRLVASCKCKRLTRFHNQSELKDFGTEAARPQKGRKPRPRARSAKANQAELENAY
Sequence of UniProt P08238 (whole entry, looked up): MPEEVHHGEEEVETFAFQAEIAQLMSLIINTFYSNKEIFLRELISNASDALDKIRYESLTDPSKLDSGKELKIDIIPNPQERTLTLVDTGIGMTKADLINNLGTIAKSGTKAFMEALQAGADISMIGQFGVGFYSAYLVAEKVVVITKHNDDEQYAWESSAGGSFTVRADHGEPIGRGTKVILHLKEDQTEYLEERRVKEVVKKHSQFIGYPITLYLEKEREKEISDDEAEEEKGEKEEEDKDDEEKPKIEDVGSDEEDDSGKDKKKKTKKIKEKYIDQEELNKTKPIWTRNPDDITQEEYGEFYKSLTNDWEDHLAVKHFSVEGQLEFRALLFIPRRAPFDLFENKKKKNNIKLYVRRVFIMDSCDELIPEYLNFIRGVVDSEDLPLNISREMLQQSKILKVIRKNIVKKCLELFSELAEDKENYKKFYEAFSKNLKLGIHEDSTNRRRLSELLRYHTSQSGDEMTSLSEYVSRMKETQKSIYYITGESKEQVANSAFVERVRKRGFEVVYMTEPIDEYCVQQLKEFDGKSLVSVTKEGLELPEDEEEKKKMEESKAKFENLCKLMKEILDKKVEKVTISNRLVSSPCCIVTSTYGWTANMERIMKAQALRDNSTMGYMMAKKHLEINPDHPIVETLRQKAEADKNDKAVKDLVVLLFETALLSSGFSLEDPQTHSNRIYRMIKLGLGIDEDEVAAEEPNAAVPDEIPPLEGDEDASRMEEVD
Sequence of UniProt O49686 (whole entry, looked up): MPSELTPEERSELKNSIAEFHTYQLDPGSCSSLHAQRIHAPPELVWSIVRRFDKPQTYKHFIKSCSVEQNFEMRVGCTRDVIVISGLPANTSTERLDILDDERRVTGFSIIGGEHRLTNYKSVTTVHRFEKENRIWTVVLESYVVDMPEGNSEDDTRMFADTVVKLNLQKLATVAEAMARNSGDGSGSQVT
Sequence of UniProt Q04206 (whole entry, looked up): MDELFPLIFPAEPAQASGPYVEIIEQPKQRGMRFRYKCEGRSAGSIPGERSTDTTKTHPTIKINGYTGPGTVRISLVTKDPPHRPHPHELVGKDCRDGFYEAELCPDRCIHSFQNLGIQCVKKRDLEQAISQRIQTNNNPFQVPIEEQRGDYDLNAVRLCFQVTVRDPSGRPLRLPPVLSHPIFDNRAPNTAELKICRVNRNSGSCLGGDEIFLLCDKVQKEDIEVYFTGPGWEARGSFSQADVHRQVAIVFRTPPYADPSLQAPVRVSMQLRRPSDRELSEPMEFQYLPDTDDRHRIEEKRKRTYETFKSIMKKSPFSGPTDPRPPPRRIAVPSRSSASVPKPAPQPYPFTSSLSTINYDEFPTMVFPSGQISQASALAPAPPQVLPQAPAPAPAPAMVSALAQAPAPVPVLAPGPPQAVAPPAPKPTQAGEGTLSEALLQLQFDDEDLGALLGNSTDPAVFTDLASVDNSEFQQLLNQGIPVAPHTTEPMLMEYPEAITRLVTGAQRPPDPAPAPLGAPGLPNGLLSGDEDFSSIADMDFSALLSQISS

SMILES	target	assay	setting	Kd
CC(C)C1=CC23CCC4C(C)(C(=O)O)CCCC4(C)C2CC1C(C(=O)O)C3C(=O)O (stereo not drawn)	RPA1 (Homo sapiens, UniProt P27694, R41E/R43E)	binding, fluorescence	–	230 µM
O=[N+]([O-])c1cc(S(=O)(=O)CCCN2CCOCC2)ccc1F	RELA (Homo sapiens, UniProt Q04206)	binding	–	2.2 µM
COc1cccc(C(=O)N[C@H]2[C@@H](O)[C@@H](CO)O[C@@H](S[C@@H]3O[C@H](CO)[C@H](O)[C@H](NC(=O)c4cccc(OC)c4)[C@H]3OS(=O)(=O)O)[C@@H]2O)c1	LGALS3	cell-free assay, FP	–	0.057 µM
CC(=O)OC1CCC(OC(C)=O)O1 (racemic)	PPIA	binding, SPR	pH 4.5	> 10 µM
OC[C@H]1Oc2cc(Cc3ccc(F)cc3)cc3c2[C@@H](OC3)[C@H]1O	Galectin-4, C-terminal domain (LGALS4, Homo sapiens, UniProt P56470)	binding, competitive fluorescence polarization	20 °C	~3000 µM
C1=[N+]2CCC[N+]3=Cc4ccc5[n]4[Au-]23[n]2c1ccc2-c1nc2ccccc2nc1-5.F[P-](F)(F)(F)(F)F	20-bp DNA duplex	SPR	pH 7.4, 37 °C	2.8 µM
Cc1ccc(-c2cc(C(=O)Nc3ccc(S(=O)(=O)Nc4ncccn4)cc3)c3ccccc3n2)c(C)c1	PPIA	binding, SPR	pH 7.4	9.33 µM
COc1c(F)c(F)c(C(=O)N[C@H]2[C@@H](O)[C@@H](CO)O[C@@H](S[C@@H]3O[C@H](CO)[C@H](O)[C@H](NC(=O)c4c(F)c(F)c(OC)c(F)c4F)[C@H]3OS(=O)(=O)O)[C@@H]2O)c(F)c1F	Galectin-3 (LGALS3, Homo sapiens, UniProt P17931, R144K)	cell-free assay, FP	–	0.49 µM
Cc1ncsc1-c1ccc(C(CO)NC(=O)C2CC(O)CN2C(=O)C(C(C)C)n2cc(-c3ccc(COc4c(-c5c(C)c(F)cc6[nH]ncc56)c(C5CC5)cc5c(N6CC7CC6CN7)nc(OC6CCOCC6)nc45)cc3)nn2)cc1 (stereo not drawn)	von Hippel-Lindau disease tumor suppressor, with Elongin B/C (VHL, Homo sapiens, UniProt P40337)	SPR	binary	0.0075 µM
O=[N+]([O-])c1cc(Br)cc([N+](=O)[O-])c1NS(=O)(=O)c1ccc(Br)cc1	PYR1 (Arabidopsis thaliana, UniProt O49686)	binding, ITC	–	2.34 µM
O=P(O)(O)O[C@@H]1[C@@H](O)[C@H](O)[C@H](O)[C@H](O)[C@H]1OP(=O)(O)O	Inositol 1,4,5-trisphosphate-gated calcium channel ITPR1, IP3-binding core (Itpr1, Rattus norvegicus, UniProt P29994, R568Q)	binding, 3H-IP3 competition	IP3-binding core IBC^R568Q	1.08 µM
CCc1cccc2c(C(=O)COC(=O)C34CC5CC(CC(Br)(C5)C3)C4)c[nH]c12	D14 (Arabidopsis thaliana, UniProt Q9SQR3)	binding, fluorescence	–	3.4 µM
COc1ccc2nc3cc(Cl)ccc3c(NCCCCNc3nc(N)nc(N)n3)c2c1	DNA duplex with (CCTG)2 step	binding, ITC	binding site 3	37 µM
C=CCNC1=C2C[C@@H](C)C[C@H](OC)[C@H](O)[C@@H](C)[C@@H]3O[C@@]3(C)[C@H](OC(N)=O)[C@@H](OC)/C=C\C=C(/C)C(=O)NC(=CC1=O)C2=O	HSP90AB1 (Homo sapiens, UniProt P08238)	ligand displacement, FP	–	> 10 µM
COc1cc(C(=O)c2[nH]c(N)nc2-c2cccs2)cc(OC)c1OC	tubulin, goat	binding, tryptophan fluorescence	pH 6.8, 25 °C	1.3 ± 0.4 µM
C[n+]1cc2cc3cc(ccc31)NC(=O)CCCCC(=O)Nc1ccc3c(c1)cc(c[n+]3C)C(=O)NCc1cccc(c1)CNC2=O	c-MYC Pu22 G-quadruplex DNA	thiazole orange displacement	added: 0.50 µM thiazole orange	0.27 ± 0.03 µM
CC[C@H](C)[C@H](NC(=O)[C@H](CCCNC(=N)N)NC(=O)[C@H](CCCCN)NC(=O)[C@H](CC(C)C)NC(=O)[C@H](CCC(N)=O)NC(=O)[C@H](C)NC(=O)CNC(=O)[C@H](CC(N)=O)NC(=O)[C@H](CCC(=O)O)NC(=O)[C@H](CCCNC(=N)N)NC(=O)[C@H](C)NC(=O)[C@H](Cc1c[nH]c2ccccc12)NC(=O)[C@H](CCC(N)=O)NC(=O)[C@H](CCC(=O)O)NC(=O)[C@H](CCC(=O)O)NC(C)=O)C(=O)N[C@@H](C)C(=O)N[C@@H](CC(=O)O)C(=O)N[C@@H](CC(=O)O)C(=O)N[C@@H](Cc1ccc(O)cc1)C(=O)N[C@@H](CC(N)=O)C(=O)N[C@@H](C)C(=O)N[C@@H](CCC(N)=O)C(=O)N[C@@H](Cc1ccc(O)cc1)C(=O)N[C@@H](CCC(=O)O)C(=O)N[C@@H](CCCNC(=N)N)C(=O)N[C@@H](CCCNC(=N)N)C(=O)N[C@@H](CCCNC(=N)N)C(=O)N[C@@H](CCC(N)=O)C(N)=O	BCL2L1	competitive fluorescence polarization	added: fluorescein-labelled peptide 10 nM	0.007 µM
O=C(O)C1OC(OC2C(C(=O)O)OC(OC3C(C(=O)O)OC(OC4C(C(=O)O)OC(O)C(O)C4O)C(O)C3O)C(O)C2O)C(O)C(O)C1O (stereo not drawn)	Beta-lactoglobulin (LGB, Bos taurus, UniProt P02754, A134V/G80D)	binding, NMR	pH 2.65	520 µM
O=C(Nc1ccc(S(=O)(=O)O)c2cccc(S(=O)(=O)O)c12)Nc1ccc(S(=O)(=O)O)c2cccc(S(=O)(=O)O)c12	XIAP BIR1 domain	microscale thermophoresis	24 °C	> 10000 µM
COc1ccc(C(=O)N[C@H]2[C@@H](O)[C@@H](CO)O[C@@H](OC)[C@@H]2O)cc1	LGALS3	cell-free assay, FP	–	620 µM
CC[C@H](C)[C@H](NC(=O)[C@H](CCCNC(=N)N)NC(=O)[C@H](CCCNC(=N)N)NC(=O)[C@H](Cc1ccccc1)NC(=O)[C@H](CCC(N)=O)NC(=O)[C@H](C)NC(=O)CNC(=O)[C@@H](NC(=O)[C@H](CCC(=O)O)NC(=O)[C@H](CCCNC(=N)N)NC(=O)[C@H](C)NC(=O)[C@H](Cc1c[nH]c2ccccc12)NC(=O)[C@H](CCC(N)=O)NC(=O)[C@H](CCC(=O)O)NC(=O)[C@H](CCC(=O)O)NC(C)=O)C(C)C)C(=O)N[C@@H](C)C(=O)N[C@@H](CC(=O)O)C(=O)N[C@@H](CC(=O)O)C(=O)N[C@H](C(=O)N[C@@H](CC(N)=O)C(=O)N[C@@H](C)C(=O)N[C@@H](CCC(N)=O)C(=O)N[C@@H](Cc1ccc(O)cc1)C(=O)N[C@@H](CCC(=O)O)C(=O)N[C@@H](CCCNC(=N)N)C(=O)N[C@@H](CCCNC(=N)N)C(=O)N[C@@H](CCCNC(=N)N)C(=O)N[C@@H](CCC(N)=O)C(N)=O)[C@@H](C)CC	BCL2L1	binding, flow cytometry	pH 8	0.00035 µM
CC[C@H](C)[C@H](NC(=O)[C@H](CCCNC(=N)N)NC(=O)[C@H](CO)NC(=O)[C@H](CC(C)C)NC(=O)[C@H](CCC(=O)O)NC(=O)[C@H](CCC(N)=O)NC(=O)[C@H](C)NC(=O)[C@@H](NC(=O)[C@H](Cc1c[nH]c2ccccc12)NC(=O)[C@@H](NC(=O)[C@H](CCC(=O)O)NC(=O)[C@@H]1CCCN1C(=O)[C@H](CCCNC(=N)N)NC(=O)c1ccc2c(c1)C(=O)OC21c2ccc(O)cc2Oc2cc(O)ccc21)[C@@H](C)CC)[C@@H](C)CC)C(=O)NCC(=O)N[C@@H](CC(=O)O)C(=O)N[C@@H](CCC(=O)O)C(=O)N[C@@H](Cc1ccccc1)C(=O)N[C@@H](CC(N)=O)C(=O)N[C@@H](C)C(=O)N[C@@H](Cc1ccc(O)cc1)C(=O)N[C@@H](Cc1ccc(O)cc1)C(=O)N[C@@H](C)C(=O)N[C@@H](CCCNC(=N)N)C(N)=O	BCL2L2 (Homo sapiens, UniProt Q92843)	fluorescence anisotropy	–	0.018 ± 0.0053 µM
CN(C)c1ccc2c(-c3ccc(C(=O)NCCCC[C@@H](NC(=O)[C@@H](CCCNC(=N)N)NC(=O)[C@@H](CCCNC(=N)N)NC(=O)[C@@H](CCCNC(=N)N)NC(=O)[C@@H](CCCNC(=N)N)NC(=O)[C@@H](CCCNC(=N)N)NC(=O)[C@@H](CCCNC(=N)N)NC(=O)CCCCCNC(=O)[C@@H](CCCNC(=N)N)NC(=O)CCCCCNC(=O)c4ccc(-c5ccnc(N)n5)s4)C(N)=O)cc3C(=O)[O-])c3ccc(=[N+](C)C)cc-3oc2c1	cGMP-dependent protein kinase 1, isoform alpha (PRKG1, Homo sapiens, UniProt Q13976)	binding, fluorescence anisotropy	no cGMP, added: 10 mM magnesium acetate	0.00773 µM
CCc1nc2cc3ccccc3cc2cc1C(=O)N1CCC[C@H]1C(=O)N[C@@H](CCC/C=C\CCC[C@H](NC(=O)[C@@H]1CCCN1C(=O)c1cc2cc3ccccc3cc2nc1CC)C(=O)N[C@@H](CCCCN)C(=O)NCCCN)C(=O)N[C@@H](CCCCN)C(=O)NCCCN	(CUG)10 RNA	binding, fluorescence titration	–	0.0404 ± 0.0003 µM
O=C(Nc1cccc(C(=O)Nc2ccc(S(=O)(=O)O)c3cc(S(=O)(=O)O)cc(S(=O)(=O)O)c23)c1)Nc1cccc(C(=O)Nc2ccc(S(=O)(=O)O)c3cc(S(=O)(=O)O)cc(S(=O)(=O)O)c23)c1	XIAP BIR1 domain	microscale thermophoresis	24 °C	25 ± 5 µM
CC(=O)N[C@@H]1[C@@H](O[C@@H]2O[C@H](C(=O)O)[C@@H](O[C@@H]3O[C@H](COS(=O)(=O)O)[C@@H](OS(=O)(=O)O)[C@H](O[C@@H]4O[C@H](C(=O)O)[C@@H](OS(=O)(=O)O)[C@H](OS(=O)(=O)O)[C@H]4OS(=O)(=O)O)[C@H]3NC(C)=O)[C@H](OS(=O)(=O)O)[C@H]2OS(=O)(=O)O)[C@H](OS(=O)(=O)O)[C@@H](COS(=O)(=O)O)O[C@H]1n1ccnn1	Sclerostin (SOST, Homo sapiens, UniProt Q9BQB4)	ligand displacement, FP	–	20.4 µM
CCN(CC)C(=O)C1CCCN(C(=O)Nc2ccc3nc(-c4ccco4)c(-c4ccco4)nc3c2)C1 (stereo not drawn)	PPIA	binding, SPR	–	7.09 µM
